Published values gathered from unrelated publications.
Numbers after ± are the reported error.
UCHL1: Ubiquitin carboxyl-terminal hydrolase isozyme L1 (UCHL1, Homo sapiens, UniProt P09936)
UniProt P09936, sequence (whole entry, looked up): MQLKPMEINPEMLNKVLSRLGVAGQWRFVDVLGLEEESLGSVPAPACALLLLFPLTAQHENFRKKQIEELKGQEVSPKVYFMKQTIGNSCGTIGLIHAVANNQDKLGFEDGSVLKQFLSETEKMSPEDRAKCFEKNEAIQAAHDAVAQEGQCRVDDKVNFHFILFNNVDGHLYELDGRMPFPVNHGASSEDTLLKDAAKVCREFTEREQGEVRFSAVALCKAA
UniProt Q07794, sequence (whole entry, looked up): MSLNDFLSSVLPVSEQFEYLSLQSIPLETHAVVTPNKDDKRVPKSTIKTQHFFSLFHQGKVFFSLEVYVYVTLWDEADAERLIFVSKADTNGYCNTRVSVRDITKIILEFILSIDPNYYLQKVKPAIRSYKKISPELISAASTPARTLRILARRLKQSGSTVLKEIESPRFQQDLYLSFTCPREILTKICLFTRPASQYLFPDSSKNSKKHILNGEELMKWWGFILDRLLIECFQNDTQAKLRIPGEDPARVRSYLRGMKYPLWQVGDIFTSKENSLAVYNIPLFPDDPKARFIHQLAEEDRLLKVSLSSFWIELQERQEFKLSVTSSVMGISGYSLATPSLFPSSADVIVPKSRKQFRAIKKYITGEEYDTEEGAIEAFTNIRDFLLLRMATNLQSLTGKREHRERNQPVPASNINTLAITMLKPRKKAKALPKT

| SMILES | tested on | test | test system | conditions | how to read | measurement | value |
| --- | --- | --- | --- | --- | --- | --- | --- |
| CC(C)(C(=O)N1CCOc2c(C#N)cncc2C1)C(F)F | – | – | human | oral, 40 mg | – | subjects with any adverse event | 100% |
| O=C(CNc1ccc2ccccc2c1)N/N=C/c1ccc([N+](=O)[O-])o1 | Trypanosoma cruzi | reporter translation, Renilla luciferase mRNA translation | cell-free extract | 40 µM | baseline: DMSO | inhibition | -387% |
| COc1ccc2[nH]c([S+]([O-])Cc3ncc(C)c(OC)c3C)nc2c1 (stereo not drawn) | – | – | healthy Chinese volunteers, plasma | oral, 20 mg, fed, CYP2C19 rapid metabolizers | – | AUC(0-t) | 390 ± 250 ng·h/mL |
| CCO[C@H]1CCN(Cc2c(OC)cc(C)c3[nH]ccc23)[C@H](c2ccc(C(=O)O)cc2)C1 | – | – | PNH patients, active haemolysis | oral, 200 mg, 8 weeks, treatment | – | incidence upper respiratory infection | 0% |
| C#CCN1C(=O)C(O)(CC(=O)c2ccc(OC)c([N+](=O)[O-])c2)c2ccccc21 (stereo not drawn) | UCHL1 | covalent, intact protein LC-MS | – | 12.5 µM | – | labelling | 25.8% |
| CCC(=O)NCC[C@@H]1CCc2cc(O)c3c(c21)CCO3 | – | sulfation, substrate | pooled human lung cytosol | 50 µM, 30 min, added: 50 mM NaF | – | specific activity | 1.3 ± 0.26 pmol/min/mg |
| COc1ccc(C[C@@H](C)[C@@H](C)Cc2ccc(OC)c(OC)c2)cc1OC | – | – | beagle dog male, plasma | oral, 100 mg/kg/day, day 1 | – | Cmax | 1610 ± 387 ng/mL |
| CCOc1c([C@H](C)n2nc(C)c3c(N)ncnc32)cc(Cl)c(F)c1[C@@H]1CNC(=O)C1 | – | ECG | previously treated B-cell malignancy patients | oral, 45 mg once daily, baseline below thresholds | – | patients with HR above 100 bpm | 0% |
| O=C(N[C@H](Cc1c[nH]c2ccccc12)C(=O)Nc1ccncc1)c1ccc(-c2cc(C(F)(F)F)ccc2F)cc1F | – | – | Swiss Webster mouse, female, intestine | oral, 50 mg/kg, 2 h, 20% HPβCD vehicle | – | concentration | 90 nM |
| N#Cc1ccc2c(c1)[C@H]1CCCN(C(=O)c3ccc4[nH]cnc4c3)[C@H]1C2 | – | – | human, male | 240 mg, day 7 | – | DHEA-S level | 9 µmol/L |
| COc1cc(N2CCC3(CCN(C)CC3)CC2)ccc1Nc1ncc(Cl)c(Nc2ccccc2P(C)(C)=O)n1 | – | population PK model | human | oral, base structural model | – | Q/F | 16.2 L/h |
| Cc1noc(C)c1Cn1cc(N2C(=O)CN(Cc3cccc(O)c3)C2=O)cn1 | – | – | pooled rat liver microsomes Sprague-Dawley | 10 µM, 30 min, pH 7.4 | – | remaining parent | 95 % peak area |
| Cc1cc(C#N)cc(C)c1Oc1nc(Nc2ccc(C#N)cc2)nc(N)c1Br | – | solvent-shift UV | FaSSIF with 0.1% PVP-VA | – | – | maximum supersaturated concentration | 110 µg/mL |
| CC(C(=O)NCC(=O)NCC(CNC(=O)CNC(=O)C(C)N1CCN(CC(=O)[O-])CCN(CC(=O)[O-])CCN(CC(=O)[O-])CC1)(CNC(=O)CNC(=O)C(C)N1CCN(CC(=O)[O-])CCN(CC(=O)[O-])CCN(CC(=O)[O-])CC1)CNC(=O)CNC(=O)C(C)N1CCN(CC(=O)[O-])CCN(CC(=O)[O-])CCN(CC(=O)[O-])CC1)N1CCN(CC(=O)[O-])CCN(CC(=O)[O-])CCN(CC(=O)[O-])CC1.[Gd+3].[Gd+3].[Gd+3].[Gd+3] (stereo not drawn) | – | ICP-MS | cynomolgus monkey | 8 h, MB study group | baseline: dose | cumulative urinary excretion | 84.1% |
| Cc1cc(C)c(CNC(=O)c2cc(Cl)c3c(c2C)O[C@@](C)([C@H]2CC[C@H](N(C)C)CC2)O3)c(=O)[nH]1 | – | – | human relapsed/refractory NHL | oral, 200 mg once daily, onset day 1 to 14 | – | ALT increased grade ≥3 | 0% |
| COc1ccc(C(O)COc2ccc(-c3csc(-c4ccc(OCC(O)c5ccc(OC)c(OC)c5)cc4)n3)cc2)cc1OC (stereo not drawn) | – | – | C57BL/6J mice, plasma | oral, 30 mg/kg | baseline: 30 mg/kg over 10 mg/kg | AUC(0-inf) ratio | 3.4 |
| O=C(O)CCC(=O)O.[2H]C([2H])([2H])Oc1cc(C)c2[nH]ccc2c1CN1CC[C@@H](C2CC2)C[C@H]1c1ccc(C(=O)O)cc1 | – | – | human, plasma | 300 mg once daily, day 10, multiple ascending dose | – | CLss/F | 2.66 L/h |
| O=C(Nc1nc2cccc(-c3ccc(CN4CCS(=O)(=O)CC4)cc3)n2n1)C1CC1 | – | – | rheumatoid arthritis patients | oral, 100 mg twice daily, 4 weeks, regardless of relatedness | – | patients with renal disorders | 0% |
| Cc1cc(NC2CCN(C(=O)OC3CCN(C(=O)/C=C/CN(C)C)C3)CC2)n2ncc(C(C)C)c2n1 (stereo not drawn) | – | CTCAE v4.0, refers to: Headache | patients with advanced solid tumours | oral, dose not given, TIW, grade 3 or higher | – | patients with TEAE | 0% |
| O=C(Nc1ccon1)C12CC3CC(C1)CC(n1cnc([N+](=O)[O-])n1)(C3)C2 | Trypanosoma cruzi | reporter translation, Renilla luciferase mRNA translation | cell-free extract | 40 µM | baseline: DMSO | inhibition | 4.5% |
| O=C(COc1ccc(Cl)cc1)NC12CC(c3nnc([C@H]4C[C@@H](OC(F)(F)F)C4)o3)(C1)C2 | – | moderate maximum severity | healthy human, both sexes | oral, dose not given, 14 days, multiple ascending dose, all doses | – | treatment-emergent adverse events | 8.8% |

| SMILES | tested on | test | test system | conditions | how to read | measurement | value |
| --- | --- | --- | --- | --- | --- | --- | --- |
| O=C(Oc1ccc(NS(=O)(=O)c2ccccc2)cc1Br)c1ccccc1 | Histone acetyltransferase RTT109, with Vps75 (Saccharomyces cerevisiae, UniProt Q07794) | enzyme activity, inhibitor, HTS, CPM-based, dose response | – | – | – | IC50 | > 125 µM |
| N#CC(=Cc1ccccc1)C(=O)Nc1ccccc1-c1ccccc1 | UCHL1 | covalent, intact protein LC-MS | – | 12.5 µM | – | labelling | 13.9% |
| Cc1cc([C@H]2C[C@H]3[C@@H](CF)SC(N)=N[C@@]3(c3ccc(F)cc3F)CO2)on1 | – | – | male 129/SVE wild-type mouse, brain | subcutaneous, 100 mg/kg, 14 h | – | brain concentration | 92 nM |
| CC(C)c1nc(N(C)S(C)(=O)=O)nc(-c2ccc(F)cc2)c1/C=C/[C@@H](O)C[C@@H](O)CC(=O)O | – | – | Wistar albino rat, both sexes, plasma | oral, 20 mg/kg, 5.5 h | – | plasma concentration | 614 ng/mL |
| O=C(Nc1nnc(Cl)s1)c1ccco1 | – | – | sheep erythrocytes | 1 h, pH 7.5 | – | maximum haemolysis | 1.5% |
| CC(C)NCC(O)COc1cccc2ccccc12 (stereo not drawn) | – | – | male Hartley guinea pigs, anaesthetized | intravenous, 0.3 mg/kg over 10 min, after infusion | – | mean blood pressure | 41 ± 0.1 mmHg |
| COc1ccc2ccc(C(=N)N)cc2c1-c1cnn(C(C)C)c1 | – | – | – | – | – | pKa | 11 |
| O=[N+]([O-])c1ccc2c(c1)S(=O)(=O)C=C2 | Toxoplasma gondii | parasite growth | HFF, bradyzoite, alkaline-induced | – | – | EC50 | 5.36 µM |
| CC(C)NCCCC[C@@H]1NC(=O)[C@H](Cc2ccc(O)cc2)NC(=O)[C@H](Cc2ccccc2)NC(=O)CC[C@H](C(=O)N[C@@H](CCCCNC(C)C)C(=O)N[C@@H](CCCCNC(=O)[C@H](CCC(=O)O)NC(=O)[C@H](CCC(=O)O)NC(=O)[C@H](CCC(=O)O)NC(=O)CN2CCN(CC(=O)O)CCN(CC(=O)O)CCN(CC(=O)O)CC2)C(N)=O)NC(=O)CNC(=O)[C@H](Cc2ccc3ccccc3c2)NC(=O)[C@@H](CCCNC(=N)N)NC1=O [gallium-68 labelled] | – | – | mouse with Daudi xenograft, intestine | intravenous, 1 h | – | tissue uptake | 0.2 %ID/g |
| CC(F)(F)c1cc(F)ccc1-c1sc2cc(O)ccc2c1Oc1ccc(/C=C/C(=O)O)cc1 | – | – | human, serum | oral, 900 mg once daily, cycle 1 day 28, fasted, mean | – | AUC(0-last) | 42100 ng·h/mL |
| Cc1ccc(Sc2ccccc2N2CCNCC2)c(C)c1 | – | – | healthy adult men | oral, 5 mg single dose, treatment-emergent adverse events | – | vomiting incidence | 0% |
| CNC(=O)c1cc(Oc2ccc(NC(=O)Nc3cc(C(C)(C)C)nn3-c3ccc4ncccc4c3)c(F)c2)ccn1 | – | refers to: worst grade 3 | human | oral, dose not given, cycles 1 and 2, High AUC(0-4 h) subgroup | – | patients with visual abnormality AE | 6% |
| O=C(O)CNC(=O)c1ncc(-c2ccc(Cl)cc2)cc1O | – | – | – | – | – | pKa (acidic) | 3.3 |
| CCCOc1ccc([C@H]2CNC(=O)N2c2ccc3[nH]cnc3c2)cc1 | – | – | human volunteers fasted, plasma | oral tablet, 200 mg single dose, crossover, geometric mean | – | effective half-life | 2.27 h |
| c1ccc(-c2nc(N3CCC(c4ccccn4)C3)c3ccccc3n2)nc1 (stereo not drawn) | – | – | female Balb/c mice, plasma | intravenous, 2 mg/kg, mean, added: ABT 2 h prior | – | AUC(0-inf) | 7110 ng·h/mL |
| C=CC(=O)N1CCC(Oc2cc3c(Nc4ccc(Cl)c(Cl)c4F)ncnc3cc2OC)CC1 | – | – | male Sprague-Dawley rats, plasma | oral, 2 mg/kg, added: schisandrin B pretreatment 20 mg/kg daily 1 week | – | CL/F | 5.83 ± 1.17 mL/min/kg |
| CNCCOC12CC3(C)CC(C)(CC(Cn4ncc(-c5ccc(N6CCc7cccc(C(=O)Nc8nc9ccccc9s8)c7C6)nc5C(=O)O)c4C)(C3)C1)C2 | – | – | beagle dog, male, anaesthetised | intravenous bolus, 0.03 mg/kg, 45 min | baseline: baseline | QTcV interval change | 12 ms |
| Cc1cc(Nc2ccc(S(F)(F)(F)(F)F)cc2)n2nc(C(C)(F)F)nc2n1 | – | – | Plasmodium vivax malaria patients | oral, 600 mg | – | adverse event Diarrhoea | 0% |
| COCCOc1cnc2ccn([C@H](C)c3nnc4c(F)cc(-c5cnn(C)c5)cn34)c(=O)c2c1 | – | – | patients, plasma | oral, 50 mg once daily, day 1 24 h postdose | – | Ctrough | 40 ng/mL |
| CCO[C@H]1CCN(Cc2c(OC)cc(C)c3[nH]ccc23)[C@H](c2ccc(C(=O)O)cc2)C1 | – | – | human mild hepatic impairment, plasma | oral, 200 mg single dose, median | – | unbound Cmax | 922 ng/mL |
| CCN1/C(=C/C(C)=O)Sc2ccc(F)cc21 | – | – | cynomolgus monkey | oral, 100 mg/kg, 24 h post-dose | baseline: pre-dose | systolic blood pressure change | 95.9 ± 7.6% |
